Results collected from several papers.
Each line is one published result; not all experiments were run side by side.
Cell line: OVCAR-8

With C#C[C@@]1(O)[C@@H](CO)O[C@@H](n2cc(F)c3c(N)ncnc32)[C@@H]1O the TGI was 3.69 µM (SRB; NCI-60 screen).
CSc1nc(-c2ccc(Cl)cc2)c2c(NC(=O)c3ccccc3)nnc-2[nH]1 gave a cell growth of 98.8% (SRB; 10 µM, NCI60 single-dose screen; reference: untreated).
For CCCN1CCN(c2ccc3[nH]c(-c4ccc5[nH]c(-c6cc(OC)c(OC)c(OC)c6)nc5c4)nc3c2)CC1, the growth percent was 75.5% (SRB; 10 µM, 48 h).
The cell growth of Cc1cc(=O)[nH]n1-c1nc(-c2ccc(Cl)cc2)c2c(NC(=O)c3ccccc3)nnc-2[nH]1 is reported as 77.3% (SRB; 10 µM, NCI60 single-dose screen; reference: untreated).
COc1ccc(OC)c(-c2nc3ccc(-c4nc5ccc(N6CCN(C)CC6)cc5[nH]4)cc3[nH]2)c1 has a growth percent of 102% (SRB; 10 µM, 48 h).
CCN(CC)c1ccc(C=NNC(=O)CSc2nc3ccccc3c(=O)n2Cc2ccc(S(N)(=O)=O)cc2)c(O)c1 has a TGI of over 100 µM (NCI five-dose screen).
O=C(Nc1nnc2n3c(Cc4ccccc4)n[nH]c3nc(-c3ccc(Cl)cc3)c1-2)c1ccccc1 gave a cell growth of 107% (SRB; 10 µM, NCI60 single-dose screen; reference: untreated).
Cc1cc(C)n(C(=S)[S][Au][PH](CCCCCC[PH]([Au][S]C(=S)n2nc(C)cc2C)(c2ccccc2)c2ccccc2)(c2ccccc2)c2ccccc2)n1 gave a log10 TGI of over -4 (cell growth, NCI-60 screen; ovarian cancer).
C#C[C@@]1(O)[C@@H](CO)O[C@@H](n2ccc3c(N)ncnc32)[C@@H]1O has a TGI of 4.11 µM (SRB; NCI-60 screen).
CN1CCN(c2ccc3[nH]c(-c4ccc5[nH]c(-c6ccc(C(F)(F)F)cc6)nc5c4)nc3c2)CC1 has a growth percent of 65.5% (SRB; 10 µM, 48 h).
With Cc1cc(C)n(-c2nc(-c3ccc(Cl)cc3)c3c(NC(=O)c4ccccc4)nnc-3[nH]2)n1 the cell growth was 102% (SRB; 10 µM, NCI60 single-dose screen; reference: untreated).
The IC50 of O=C1NCCc2[nH]c(-c3ccncc3)cc21 is reported as 3.6 µM (MTS; NCI60 panel).
The growth percent of CCCN1CCN(c2ccc3[nH]c(-c4ccc5[nH]c(-c6ccc(C(F)(F)F)cc6)nc5c4)nc3c2)CC1 is reported as -38% (SRB; 10 µM, 48 h).
Cn1cncc1C1=CN(c2ncnc3[nH]cnc23)CCS1 gave a GI50 of 30.9 µM (ovarian cancer).

Some of these lines once more:
For CCCN1CCN(c2ccc3[nH]c(-c4ccc5[nH]c(-c6cc(OC)c(OC)c(OC)c6)nc5c4)nc3c2)CC1, the growth percent was 75.5% (SRB; 10 µM, 48 h).
The cell growth of Cc1cc(=O)[nH]n1-c1nc(-c2ccc(Cl)cc2)c2c(NC(=O)c3ccccc3)nnc-2[nH]1 is reported as 77.3% (SRB; 10 µM, NCI60 single-dose screen; reference: untreated).
